Published values gathered from unrelated publications.
Each numbered part is a random draw from the data of one study; scales do not carry over between parts.

Block 1
Target: RNA binding protein fox-1 homolog 2, RRM domain, GST-SBP tag (RBFOX2, Homo sapiens, UniProt O43251-10, residues 100-194)
Method: RNA Bind-n-Seq
Molecule type: RNA
Matrix: in vitro
Tested at: 365 nM
Setting: natural RNA segment, single round, ends assumed
Baseline: no-protein control
Direction: higher = stronger binding
All sequences stand within: GGGAGUUCUACAGUCCGACGAUC … UGGAAUUCUCGGGUGCCAA
Residues (chain): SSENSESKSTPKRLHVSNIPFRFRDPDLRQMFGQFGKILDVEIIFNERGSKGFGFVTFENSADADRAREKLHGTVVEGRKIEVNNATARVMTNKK
For `AUUAUGUAAGAAUCUUGCACAGCACUGCUAAUGUAAAUUUCAGUUGUUUUUCCCUCUAGGACAAACACUUACCAAAAUAUGCAACUUUUUUUUGGUGGGAAGAGAGAUUG`, “RBNS enrichment (R)” read 1.69.
For `AAAGUUCCAGAGUAAACAAAUGGUGCCAUCAUUCAAGAUAACAUGCUGAUCACCCUCCUCCCAAAAAGCAAGAGCUUGUUUAUGGCUGAGGAAUCGGCGGAUUGUCUGAA`, “RBNS enrichment (R)” read 0.459.
`UGCUGGGGACAUUCCAGGCAGAUGAGCAGCCAUGCCCCAUAACGGCGUGCCCACAGUGGCCGGGCCAUGGCUUAGGCUUCCCUCAUGGUCACUUUGCCCAUUACGUCAGA` — result for “RBNS enrichment (R)”: 0.189.
`GCUUGAUAAUUUAUCUUAAAACACAGCAGCAUUGAAAUUUAGGAAAAGAAUAUUAAAUGCCUUUGGAAACAUGAAACAAAGUUAGGAGCCAGUAAGAAAGUGACAGAAGC`: “RBNS enrichment (R)” 0.643.
`CUCAGCUAUCCUUCUAAUUUCUCUCUAAUUUCAAUUUGUUUAUAUUUACCUCUGGGCUCAAUAAGGGCAUCUGUGCAGAAAUUUGGAAGCCAUUUAGAAAAUCUUUUGGA`: “RBNS enrichment (R)” 0.626.
Under “RBNS enrichment (R)”, `UCAGAAAGCAAUUUUGUAAUUUCAGAGAGUGUUUUGAGCCAUGGCCACGUUGUCAUUGUGAGUCUAUAGCUUGACUCCUUGGAGAACAAUAUUCAUUUGGUUGUGGAGAC` is recorded as 0.322.
`AGCUUUGAGAACCCUCCUUUUAGUAUAUGAAAAAGCCUAAUGCGCAUUCAUGAGGUUGGAGAGACUAUGAGAAAUAUGUAUAGUGUAUAUUUUAAACAGCUUUGCUUGUA` — result for “RBNS enrichment (R)”: 2.06.
For `UACCCCACACAGGGUGGCAGAACUUGAAGGGUUACUGACGUGUAAAUGCUGGUAUUUGAUUUCCUGUGUGUGUUGCCCUGGCAUUAAGGGCAUUUUACCCUUGCAGUUUU`, “RBNS enrichment (R)” read 0.456.
`CUGCUUUUCCUAUAGUCAGAGGGCUCCAAGGUAGAACUCUCUAAGUCCCUCUCAAUGGCACUCUUUGCCUAGACCAAACUAAUGACCAAACAGUAAUCAAUCUAUCACUG`: “RBNS enrichment (R)” 0.406.
`GGCCAGAAAGGCAAUUUGGCUAAAAAAUGAAUAAGACUACUUCUAAUGUAACUAAGCAUCUCCACUAUGGUGUGUGCCUUUUAUAAAGGAAAAGAGAGAAAAAGGCAAAG`: “RBNS enrichment (R)” 0.406.
For `UAGCCUUGUGCCCAUUAGGUAACUGAACAAUGAUUCAGCUCUUAGAAUACCUAGGAAGACAGCAAGCAGGGUGACACACGGCUGUGAUCUAAGCAUUCAGAAGACAGAGG`, “RBNS enrichment (R)” read 1.25.
`AAAGGUAAAUAACCUAGGUUCAGCUUUUGCUUAAACAUUAAAUAUCUUUUCCAUUUUUUAAUGUUUGUAAGCUAGAUAUGCCAGCUUUGUUUCUACAUUGCAACCAAAAA`: “RBNS enrichment (R)” 0.554.

Block 2
Target: Sox-I, HMG box (Salpingoeca helianthica)
Method: Spec-seq
Molecule type: double-stranded DNA, one strand shown
Matrix: in vitro
Tested at: not given
Setting: whole probe, mean of replicates
Baseline: not given
Direction: lower = stronger binding
All sequences stand within: GAGTCGTCTCGTCAGCAC … CCGTAGAGCACTCAGGTC
Target sequence (chain): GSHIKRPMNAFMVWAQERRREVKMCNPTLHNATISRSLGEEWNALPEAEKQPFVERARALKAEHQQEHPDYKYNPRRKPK
`GCGGGTT` — result for “relative binding energy”: 1.07 ln ratio.
`CATCATC` — result for “relative binding energy”: 0.547 ln ratio.
Under “relative binding energy”, `AAATGTT` is recorded as -0.578 ln ratio.
Under “relative binding energy”, `TGCCGTT` is recorded as 0.651 ln ratio.
`CATGAGT`: “relative binding energy” 1.01 ln ratio.
`ATTAGTT` — result for “relative binding energy”: -0.0878 ln ratio.
Under “relative binding energy”, `CATATGT` is recorded as 0.557 ln ratio.
For `CCTCGTT`, “relative binding energy” read 0.169 ln ratio.
`CAGTGTT` — result for “relative binding energy”: 0.169 ln ratio.
`AGAGGTT` — result for “relative binding energy”: 0.249 ln ratio.
Under “relative binding energy”, `GTCTGTT` is recorded as -0.076 ln ratio.
For `AGACGTT`, “relative binding energy” read 0.481 ln ratio.
Under “relative binding energy”, `GATAGTT` is recorded as 0.164 ln ratio.
Under “relative binding energy”, `CATACGA` is recorded as 0.696 ln ratio.
For `TGTTGTT`, “relative binding energy” read -1.68 ln ratio.
For `TTGTGTT`, “relative binding energy” read -0.356 ln ratio.
`CGTTGTT`: “relative binding energy” -1.83 ln ratio.
For `CATCCCA`, “relative binding energy” read 0.63 ln ratio.
`GCTAGTT` — result for “relative binding energy”: 0.213 ln ratio.

Block 3
Target: Sal-like protein 4, full length isoform B (SALL4, Homo sapiens, UniProt Q9UJQ4-2, residues 1-616)
Method: universal PBM
Molecule type: double-stranded DNA, one strand shown
Matrix: in vitro
Tested at: not given
Setting: 8-mer, flanks averaged, mean of replicates
Direction: higher = stronger binding
Residues (chain): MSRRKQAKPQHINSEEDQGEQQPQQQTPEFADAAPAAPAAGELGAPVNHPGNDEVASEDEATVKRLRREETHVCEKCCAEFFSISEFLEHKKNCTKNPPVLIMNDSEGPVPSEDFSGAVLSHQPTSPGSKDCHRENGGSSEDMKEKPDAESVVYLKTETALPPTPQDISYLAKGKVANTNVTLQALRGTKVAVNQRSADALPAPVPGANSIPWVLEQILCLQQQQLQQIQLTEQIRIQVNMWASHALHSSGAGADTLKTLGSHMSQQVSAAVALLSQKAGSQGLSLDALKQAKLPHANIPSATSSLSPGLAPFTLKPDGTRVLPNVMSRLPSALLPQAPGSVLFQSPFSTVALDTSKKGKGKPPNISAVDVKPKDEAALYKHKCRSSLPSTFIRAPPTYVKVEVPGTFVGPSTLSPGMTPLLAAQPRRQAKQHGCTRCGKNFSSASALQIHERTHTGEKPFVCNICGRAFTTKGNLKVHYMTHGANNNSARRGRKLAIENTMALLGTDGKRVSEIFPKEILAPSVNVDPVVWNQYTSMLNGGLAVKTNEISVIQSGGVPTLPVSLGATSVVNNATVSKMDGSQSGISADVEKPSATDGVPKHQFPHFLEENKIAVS
The E-score of `CCCTACAG` is reported as -0.102.
`TGTCCTAA` gave an E-score of 0.0808.
The E-score of `AGCCATGA` is reported as -0.0333.
The E-score of `AGTTATAA` is reported as 0.37.
`TATGTTCA` has an E-score of 0.281.
`CTGGCTGA` has an E-score of -0.29.
`AAAGCACA` has an E-score of 0.0417.
The E-score of `ATAGATTC` is reported as 0.212.
For `GGGGACCA`, the E-score was -0.307.
`ACTAGGTG` has an E-score of -0.112.
`CTGGTGTA` gave an E-score of -0.0381.
`TAAGGGTA` gave an E-score of 0.028.
For `CAGTGTCA`, the E-score was -0.0166.
For `ACATTCGC`, the E-score was -0.0709.
`AGGAGGCG` gave an E-score of -0.244.
With `CATAGGAG` the E-score was 0.0718.
`ACCATGTC` has an E-score of 0.0222.
The E-score of `GTGAAAAC` is reported as -0.0276.
For `AGCAACCC`, the E-score was -0.194.
The E-score of `AGGAGCAG` is reported as -0.276.
`CAGACCGA` has an E-score of -0.207.
`CGGAGGAC` has an E-score of -0.0894.
`GGGACATA` gave an E-score of 0.0242.
For `ACCACTAG`, the E-score was 0.0626.
`GAAGCCTA` gave an E-score of 0.00341.

Block 4
Target: Fragile X messenger ribonucleoprotein 1, C-terminal low-complexity region (Fmr1, Mus musculus, UniProt P35922)
Method: RNA Bind-n-Seq
Molecule type: RNA
Matrix: in vitro
Tested at: 200 nM
Setting: whole 134-nt RNA, ends assumed
Together with: 150 mM KCl
Baseline: input library
Direction: higher = stronger binding
All sequences stand within: GGGAGUUCUACAGUCCGACGAUC … UGGAAUUCUCGGGUGUCAAGG
`GUCCUGUGCUACACAUCGUAUGUACCGAAUCGGGAAAAAAGGGAAAAAAGGAAAAAAGGAAAGUAUUAUGUUACGCCGUUCGGAUCUGCA` has a log2 enrichment of -0.576.
`ACCAUGCAGGUGGGCAACUUUGGGAAGUGGGGCAAGGGGGGGAUAGGGAGGGGGGUAACACUUUGGGAACAGGUGGUCCCAGGUCGUUUC` gave a log2 enrichment of 0.736.
`UCAAGUCCUGUGCUACACAUCGUAUGUACCGAAUCGGGGCCGGGGCCGGCCGGGAAAGUAUUAUGUUACGCCGUUCGGAUCUGCACUUCC` has a log2 enrichment of -0.0953.
The log2 enrichment of `GUCCUGUGCUACACAUCGUAUGUACCGAAUCGGGUUUGGGUUUUUGGGAAAAAAAGGGAAAGUAUUAUGUUACGCCGUUCGGAUCUGCAC` is reported as -0.00304.
With `GGGGUGAGCACAGACAGGAUCGCAGGGAGAGGCCGUAUUAAUUAGCCUGGCUCCCCAGGUUCUGGAACAGCUUUUUGUCCUGUACCCAGU` the log2 enrichment was 0.116.
The log2 enrichment of `UAUCCCCUAUGAGGCACCACGUAAGACCUCCUGCCCUUAGCUCUCUUGCUCACCACCCAAGAACCUCAGGACAGAAGCGAGAGCCCAUUG` is reported as 0.73.
`UGGGAGGUGGAUUUUGUUUAUUUUUUUAGCUCAUUUCCAGGGGUGGGAAUUUUUUUUUAAUAUGUGUCAUGAAUAAAGUUGUUCUUGAAA` has a log2 enrichment of 0.374.
For `UCCCCCCUAUUGGAAGUAAAGGGGAACAUAGAACUGAAGAGACCUCUGAUUAAGGCCCCUUCCCAGCUGCCUCUCUCAGGAAGCAGACUC`, the log2 enrichment was -0.807.
With `CCUCAAGUCCUGUGCUACACAUCGUAUGUACCGAAUCGGUUUUUGGUGGAGGAAAGUAUUAUGUUACGCCGUUCGGAUCUGCACUUCCAG` the log2 enrichment was 0.301.
The log2 enrichment of `AAGUCCUGUGCUACACAUCGUAUGUACCGAAUCGGGUUUUUGGGAAAAAGGGAGGGAAAGUAUUAUGUUACGCCGUUCGGAUCUGCACUU` is reported as 0.679.
With `CCUGUGCUACACAUCGUAUGUACCGAAUCGGGAAAAAAGGGAAAAAAGGGGAAAAAAGGGGAAAGUAUUAUGUUACGCCGUUCGGAUCUG` the log2 enrichment was -0.707.
For `GUCCUGUGCUACACAUCGUAUGUACCGAAUCGGGAAAAAGGGGAAAAAGGGAAAAAGGGAAAGUAUUAUGUUACGCCGUUCGGAUCUGCA`, the log2 enrichment was -0.319.
The log2 enrichment of `CUCAAGUCCUGUGCUACACAUCGUAUGUACCGAAUCGGUUUUUGGAAAGGUGGAAAGUAUUAUGUUACGCCGUUCGGAUCUGCACUUCCA` is reported as -0.199.
The log2 enrichment of `UCCUGUGCUACACAUCGUAUGUACCGAAUCAAAGUGUGUGUGUGUGUGUGUGUGUGAAAAAAGUAUUAUGUUACGCCGUUCGGAUCUGCA` is reported as 0.72.

Excerpt of the above (block 3):
`CTGGCTGA` has an E-score of -0.29.
`CTGGTGTA` gave an E-score of -0.0381.
For `CAGTGTCA`, the E-score was -0.0166.
The E-score of `CCCTACAG` is reported as -0.102.
`AGGAGGCG` gave an E-score of -0.244.
`AAAGCACA` has an E-score of 0.0417.
`GAAGCCTA` gave an E-score of 0.00341.
`ACTAGGTG` has an E-score of -0.112.
With `CATAGGAG` the E-score was 0.0718.
